Assay results of several laboratories.
Each numbered part is a random draw from the data of one study; scales do not carry over between parts. Values joined by “and” are separate records of one study, mostly repeats; a detail may differ.
UniProt P29376, sequence (whole entry, looked up): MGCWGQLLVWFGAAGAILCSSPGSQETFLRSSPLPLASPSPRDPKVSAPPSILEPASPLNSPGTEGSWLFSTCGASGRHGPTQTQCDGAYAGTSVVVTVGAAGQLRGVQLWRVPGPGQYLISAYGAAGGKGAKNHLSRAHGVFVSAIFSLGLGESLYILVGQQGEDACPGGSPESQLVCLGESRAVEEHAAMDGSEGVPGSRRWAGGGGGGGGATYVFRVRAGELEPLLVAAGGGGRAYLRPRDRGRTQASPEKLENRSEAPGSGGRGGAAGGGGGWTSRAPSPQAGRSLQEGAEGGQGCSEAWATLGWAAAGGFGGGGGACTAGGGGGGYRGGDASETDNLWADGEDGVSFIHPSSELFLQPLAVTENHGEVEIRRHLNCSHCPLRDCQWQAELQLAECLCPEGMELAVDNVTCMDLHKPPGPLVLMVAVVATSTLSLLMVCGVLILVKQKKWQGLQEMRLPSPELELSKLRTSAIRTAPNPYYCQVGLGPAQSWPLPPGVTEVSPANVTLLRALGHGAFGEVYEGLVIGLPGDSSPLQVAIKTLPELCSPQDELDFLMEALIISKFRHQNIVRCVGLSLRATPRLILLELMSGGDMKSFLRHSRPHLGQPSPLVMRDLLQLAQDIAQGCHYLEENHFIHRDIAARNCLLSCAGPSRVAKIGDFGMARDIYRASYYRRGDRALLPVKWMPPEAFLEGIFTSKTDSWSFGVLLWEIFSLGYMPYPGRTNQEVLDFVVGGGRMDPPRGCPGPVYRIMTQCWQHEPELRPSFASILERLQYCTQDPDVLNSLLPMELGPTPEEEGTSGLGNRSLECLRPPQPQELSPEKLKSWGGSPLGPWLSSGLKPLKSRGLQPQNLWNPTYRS

Set 1
Host: human
Medium: microsomes or S9
Tested at: 2 µM
Time: 0.5 h
| Compound | remaining compound [%] |
| --- | --- |
| CN(C)Cc1nnc([C@H]2C[C@H](NC(=O)C3CCC(C(C)(C)C)CC3)C2)n1C (stereo partly shown) | 95.3 |
| CCc1ccc(/C=N/Nc2nn3cnnc3c3ccccc23)cc1 | 20.6 |
| Cc1sc(NC(=O)NCC(CC(C)C)N(C)C)c(C#N)c1C (stereo not shown) | 54.7 |
| COc1ccc(-c2ncnc3nc4n(c23)CCC4)cc1 | 71.6 |
| CC(=O)N(c1ccccc1)C(c1ccccc1)c1nc2ccccc2nc1O (stereo not shown) | 76.4 |
| O=C(Cn1ccccc1=O)N1C[C@@H]2CC[C@H](C1)N(Cc1cscn1)C2=O | 86.7 |
| CC(NC(=O)CN1C(=O)CCn2nc(-c3cn(C)c4ccccc34)cc21)c1ccc2c(c1)OCCO2 (stereo not shown) | 11.5 |
| O=c1c2c([nH]n1-c1nc3ccccc3[nH]1)CCCC2 | 83.3 |

Set 2
Target: Beta-2 adrenergic receptor (ADRB2, Homo sapiens, UniProt P07550)
UniProt P07550, sequence (whole entry, looked up): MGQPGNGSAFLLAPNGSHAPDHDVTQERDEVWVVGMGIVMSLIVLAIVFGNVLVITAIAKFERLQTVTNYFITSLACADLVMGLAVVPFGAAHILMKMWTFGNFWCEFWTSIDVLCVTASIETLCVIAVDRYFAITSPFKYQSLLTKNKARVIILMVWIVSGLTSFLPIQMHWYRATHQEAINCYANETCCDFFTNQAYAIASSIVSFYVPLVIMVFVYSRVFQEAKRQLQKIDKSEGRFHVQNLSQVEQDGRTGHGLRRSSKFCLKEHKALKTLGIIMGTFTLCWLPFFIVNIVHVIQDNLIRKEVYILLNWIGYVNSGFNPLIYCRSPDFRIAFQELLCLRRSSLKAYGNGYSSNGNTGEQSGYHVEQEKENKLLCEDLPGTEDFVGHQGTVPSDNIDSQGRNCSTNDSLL
Observed: binding
Method: radioligand binding
Tested at: 10 µM
| SMILES | inhibition [%] |
| --- | --- |
| Cc1nc(Cc2cccc(C(F)(F)F)c2)sc1-c1ccc(C(N)=O)nc1 | 2.07 |
| O=C1c2ccc(Nc3ccc(F)cc3F)cc2CCc2ccc(OC[C@H](O)CO)cc21 | 2.93 |
| C[C@@]1(Cc2ccc(C#N)cc2)C(=O)N(c2cc(Cl)cc(Cl)c2)c2ncc(C(=O)NC3(c4nc(C5CCC5)no4)CC3)n21 | -7.08 |
| Cc1c[nH]c2nccc(Oc3c(F)cc(Nc4cc(Cl)nc(N)n4)cc3F)c12 | -7.12 |
| Cc1nccc(COC(=O)N2C[C@@H]3[C@@H](CNC(=O)c4ccc5[nH]nnc5c4)[C@@H]3C2)n1 | -9.93 |
| CC1=C(C#N)[C@@H](c2ccc3[nH]nc(C)c3c2)C(C#N)=C(c2ccc(Cl)cc2)N1 | -0.813 |
| Nc1c(C(=O)NCc2ccc(C(=O)NCCCC3CCCCC3)cc2)cnn1-c1ccccc1 | 6.62 |
| CN(C)C(=O)Cn1cc(-c2nc([C@@](C)(c3ccc(-c4cnc(N)nc4)cc3)C3CC3)no2)cn1 | 0.497 |

Set 3
Cell line: HaCaT
Tested at: 100 µM
Time: 60 h
| SMILES | viability |
| --- | --- |
| Cc1onc(-c2ccccc2)c1C(=O)N[C@@H]1C(=O)N2[C@@H]1SC(C)(C)[C@@H]2C(=O)O | 129% |
| CCCCC[C@H](O)/C=C/[C@H]1[C@H](O)CC(=O)[C@@H]1CCCCCCC(=O)O | 118% |
| C[N+]1(CCCCC[N+]2(C)CCCC2)CCCC1 | 141% |
| CC(=O)O[C@]1(C(C)=O)CC[C@H]2[C@@H]3C=C(C)C4=CC(=O)CC[C@]4(C)[C@H]3CC[C@@]21C | 113% |

Single results of other studies
| SMILES | target or system | assay | setting | scale | endpoint | result |
| --- | --- | --- | --- | --- | --- | --- |
| Cc1cn(-c2cc(NC(=O)c3ccc(C)c(Nc4nccc(-c5cccnc5)n4)c3)cc(C(F)(F)F)c2)cn1 | Leukocyte tyrosine kinase receptor (LTK, Homo sapiens, UniProt P29376) | enzyme activity, inhibitor, radiometric | 0.5 µM | – | remaining activity | 101% |
| CC[C@@H](C)c1nc2cc(Nc3ccnc4ccc(S(=O)(=O)C(C)C)cc34)ccc2s1.Cl | L929 | caspase activity, Ac-DEVD-pNA absorbance | 50 µM, 2 h | higher = more activity | caspase-3 activity | 0.012 a.u. and 0.026 a.u. and 0.0085 a.u. and 0.011 a.u. |
